Assay results collected from several papers.
A part holds a random share of what one study measured. Changes are numbered by the printed parent chain.

Set 1 — technique: RNA Bind-n-Seq; molecule type: RNA; medium: in vitro; concentration: not given; baseline: input RNA pool; reading: higher = stronger binding; measurement: bound/input enrichment
Target: RING finger protein unkempt homolog, zinc fingers 1-6, GST-SBP tag (UNK, Homo sapiens, UniProt Q9C0B0, residues 30-357)
UniProt Q9C0B0, sequence (30-357, looked up): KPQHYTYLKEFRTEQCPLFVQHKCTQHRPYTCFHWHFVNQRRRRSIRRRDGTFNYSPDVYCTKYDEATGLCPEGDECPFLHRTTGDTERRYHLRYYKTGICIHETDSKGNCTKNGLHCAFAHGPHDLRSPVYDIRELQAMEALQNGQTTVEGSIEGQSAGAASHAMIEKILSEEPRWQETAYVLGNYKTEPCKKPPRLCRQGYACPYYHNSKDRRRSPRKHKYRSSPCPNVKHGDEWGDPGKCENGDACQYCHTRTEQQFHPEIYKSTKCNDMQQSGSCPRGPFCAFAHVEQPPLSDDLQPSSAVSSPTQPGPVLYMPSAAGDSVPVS
Notes: RNA with constant flanks, human and mouse sites, ends assumed
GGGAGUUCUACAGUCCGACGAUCCGCCGUCUUGGCUUGGCUGCUAAACUUAUGGAGUUACUAGAAGAAAUUUCAGAAAGAAAAGGUGGAUUUUUUGUUGAUCUCUUCGUAAGAGUAUCCAAUCAAGUUGCCGUCAACAUGUACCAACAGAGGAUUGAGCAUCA: 0.216 ratio
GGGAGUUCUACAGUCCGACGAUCUUGUUACUGGUUUUCUUUUUUUUUAAUGCUUCUGUUUUUAUCUCGCAAGUUGAUAUUGUACUUAGAUCUUAGCCAAAAACUUUUAUCUCUGAGAAAAAGUUUAAUAAAAAUGUACUAAACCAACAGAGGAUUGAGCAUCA: 1.75 ratio
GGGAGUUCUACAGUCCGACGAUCAAGCGAUUAGCAGCUCAGUUUAUACCAAAAUUCUUUAAGCAUUUUCCAGAGCUGGCUGAUUCUGCUAUCAAUGCACAGUUAGACCUCUGUGAGGAUGAAGAUGUGUCAAUACGACGUCAACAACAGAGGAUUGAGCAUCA: 0.246 ratio
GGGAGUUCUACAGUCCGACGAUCUGCAUUCGCAAAGCAAAGAUCUCUGCUGUUGCUUUCCGGAAAGCUUUCUGCCACCACAAGUUAGUGGAACUUGAUGCCACAGGUGUGAAUGCUGAUAUCACGAUUACAGACAUUAUCAGUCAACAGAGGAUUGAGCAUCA: 0.132 ratio
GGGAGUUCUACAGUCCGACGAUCAUUAAGCAGAGGACUAAGUUGGAGCUUAAAGCCAAGGAUUUACAAGAUGAACUAGCAGGCAAUAGUGAACAAAGGAAACGUUUAUUAAAAGAGAGGCAGAAGCUGCUUGAAAAAAUAGAACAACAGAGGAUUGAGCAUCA: 1.07 ratio
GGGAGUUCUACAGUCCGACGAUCUUGGGACCUACUUUAUUACCCAGUAUCUUUGGGUCUGUGAAUUGAAGCAUGGUUAUCCUUCACUUUAUGGCGAAUGUCUACUUAUAAAUGAGUAUAUAUCAUCUGUCUUGCUGGCUCCGGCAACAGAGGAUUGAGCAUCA: 0.252 ratio
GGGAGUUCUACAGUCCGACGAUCGGGGAGGGGAUGGAGGAUAACCUCAUGAAAGGUGCCGUUUUCGGGUGAAACUUGACAUUUCUUUUAUACUUUACUCUUUUGAGAAGGAUUCUUUUUUUUUUUUUUUUUUUUUUUGAGUUGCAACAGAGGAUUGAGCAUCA: 2.17 ratio
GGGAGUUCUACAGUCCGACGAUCCCGUGCUCCAAAGUCAUCGUCCGGUUUCUCACUGUGAUGAUGAAGCAUGGUUACAUUGGCGAAUUUGAAAUCAUUGAUGACCACAGAGCUGGGAAAAUUGUUGUGAACCUCACAGGCAGGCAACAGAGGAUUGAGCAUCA: 0.139 ratio

Set 2 — technique: RNA Bind-n-Seq; molecule type: RNA; medium: in vitro; concentration: 365 nM; baseline: no-protein control; reading: higher = stronger binding; measurement: RBNS enrichment (R)
Target: RNA binding protein fox-1 homolog 2, RRM domain, GST-SBP tag (RBFOX2, Homo sapiens, UniProt O43251-10, residues 100-194)
Notes: natural RNA segment, single round, ends assumed
Target sequence (chain): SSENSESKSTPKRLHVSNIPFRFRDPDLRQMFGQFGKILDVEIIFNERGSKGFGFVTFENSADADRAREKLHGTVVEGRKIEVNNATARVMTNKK
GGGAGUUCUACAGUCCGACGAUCCUGUGCAGGAGGAGGGUUGCUAGUAGGUUCUGCUUCUGCUUCUCUCUGCUCCACUGUCUGCAGCCCAGAUCCUGUUGGGCCUGGCUGGUGUCUGGUAACCAUGGGCCUCCUGGAAUUCUCGGGUGCCAA: 0.441
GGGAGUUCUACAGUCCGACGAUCCCUCUCUGUUACUUUUGGCCUAUGUUGUUAGAAAUAAGAUGCUAUCUUGCAUAGUUAGAAUUAAGCGUUUGUCCAUCUCUAGAUAACAUUGAAAAGUUUGAGUGUUACAGUGGAAUUCUCGGGUGCCAA: 0.376
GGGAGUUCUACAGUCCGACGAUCCGUGCAGCUUUUCUAUAUGCACGUGUUUUAUUAAUCUGAAUAUUCUCCUUCUGUCUCGGUUUGUGUCCCUUUCAUUCCCUUUUAGUAUUUGCAAGAGGAAAAUUGUCUGUUGGAAUUCUCGGGUGCCAA: 0.94
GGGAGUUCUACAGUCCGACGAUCUGAGGUUUUUCCUUCCCUGUGAAGAAAUACCAACCUUUGGACCCAAUAACAUUCAUAACUGGUAGAGACGUUUAUGUUGUUACAUGUGCUUUGUGUGUUGCUUUUAUUGAUGGAAUUCUCGGGUGCCAA: 0.294
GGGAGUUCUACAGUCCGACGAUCGCCGCAGAGUGGCCCGCUGGGACUCCCAUGUGCUGCCGUCUGAUGUGCUCAGAUGGGCUCAUCGUUGGUUCGUUUUUACUGUAUAUUUAUAGUAAUAAAAUCAUGCAGCAUGGAAUUCUCGGGUGCCAA: 0.317
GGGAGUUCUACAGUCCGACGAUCCACAGCCCAGUGGGUCCUUGUUCAGUUCUUGUCCAGGCCUUUGGGUGAGGGACACUGGUAGGGAUCAAGGCUCAUGGGCUCUGAGCCAAAGAAGGAGGCAUGGUGCAGACUGGAAUUCUCGGGUGCCAA: 0.978
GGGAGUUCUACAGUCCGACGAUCGGACAAAGGUGAUGAAACCAAGAGAGCUCCUGCCUUCUUGCCUGCCUACGUGAACCACCUGGGUCUCCCUUAGCAGGUACCCAGCCCUGAGGUGACUGACCACCUAGGGCUGGAAUUCUCGGGUGCCAA: 0.846
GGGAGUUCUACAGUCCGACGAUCAUAGUUUGUGAAAUGAUGAGGGCAUUUUAUCUGCUUGCUGUGACCAGCGUGUGUACACAUAAACCUUAACAAGACUACAAGUAUAUUCCAGAAGGAAAUCAUUUUAGUUAUGGAAUUCUCGGGUGCCAA: 0.889

Set 3 — target: CCND3, cyclin fold, Cln2 fusion (human); technique: yeast growth competition, sequencing; medium: yeast; notes: weak parent motif; baseline: not given; reading: higher = stronger binding; measurement: normalised enrichment score
Starting sequence: PKMYT1 docking peptide (human); SFEPRNLLSLFED; partner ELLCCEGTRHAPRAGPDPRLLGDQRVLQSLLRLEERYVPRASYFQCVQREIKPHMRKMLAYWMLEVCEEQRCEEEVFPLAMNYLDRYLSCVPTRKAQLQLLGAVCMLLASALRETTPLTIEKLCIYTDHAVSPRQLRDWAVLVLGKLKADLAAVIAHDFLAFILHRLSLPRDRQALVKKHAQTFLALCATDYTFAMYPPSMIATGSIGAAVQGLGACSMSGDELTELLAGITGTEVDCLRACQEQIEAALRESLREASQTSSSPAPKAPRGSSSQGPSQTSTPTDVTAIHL
S1R: 0.0437
E12L: -0.0711
L10T: 0.0717
P4K: 0.0947
F2R: 0.11
L10K: 0.035
L10H: 0.117
F2Y: 0.034

Other studies, line by line
Starting sequence: PafA, mature enzyme, eGFP fusion (Elizabethkingia meningoseptica, UniProt Q9KJX5); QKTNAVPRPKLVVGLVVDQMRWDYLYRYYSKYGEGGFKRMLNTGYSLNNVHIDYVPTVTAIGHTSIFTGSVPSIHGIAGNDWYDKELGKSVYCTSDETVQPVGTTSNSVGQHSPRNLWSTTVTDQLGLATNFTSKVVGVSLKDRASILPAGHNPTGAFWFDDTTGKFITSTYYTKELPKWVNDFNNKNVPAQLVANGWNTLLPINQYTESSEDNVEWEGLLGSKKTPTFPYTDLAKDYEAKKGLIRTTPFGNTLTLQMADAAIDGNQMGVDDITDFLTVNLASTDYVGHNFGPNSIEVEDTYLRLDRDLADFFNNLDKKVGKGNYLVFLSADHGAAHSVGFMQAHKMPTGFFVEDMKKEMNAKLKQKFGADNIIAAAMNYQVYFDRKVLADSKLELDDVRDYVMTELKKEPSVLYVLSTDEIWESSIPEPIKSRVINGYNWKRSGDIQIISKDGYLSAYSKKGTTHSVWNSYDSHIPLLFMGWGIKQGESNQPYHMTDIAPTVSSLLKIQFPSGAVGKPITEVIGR
G484V
oxyanion analog dissociation constant (tungstate, free oxyanion; microfluidic competitive inhibition; in vitro, cell-free expressed; not given, derived from inhibition constants, unchanged parent 2230 nM; lower = stronger binding): 3730 nM

Excerpt of the above (set 1):
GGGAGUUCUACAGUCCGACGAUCUUGUUACUGGUUUUCUUUUUUUUUAAUGCUUCUGUUUUUAUCUCGCAAGUUGAUAUUGUACUUAGAUCUUAGCCAAAAACUUUUAUCUCUGAGAAAAAGUUUAAUAAAAAUGUACUAAACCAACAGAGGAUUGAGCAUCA: 1.75 ratio
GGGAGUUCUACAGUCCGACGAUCUUGGGACCUACUUUAUUACCCAGUAUCUUUGGGUCUGUGAAUUGAAGCAUGGUUAUCCUUCACUUUAUGGCGAAUGUCUACUUAUAAAUGAGUAUAUAUCAUCUGUCUUGCUGGCUCCGGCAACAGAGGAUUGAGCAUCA: 0.252 ratio
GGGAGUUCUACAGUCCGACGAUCUGCAUUCGCAAAGCAAAGAUCUCUGCUGUUGCUUUCCGGAAAGCUUUCUGCCACCACAAGUUAGUGGAACUUGAUGCCACAGGUGUGAAUGCUGAUAUCACGAUUACAGACAUUAUCAGUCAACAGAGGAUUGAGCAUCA: 0.132 ratio
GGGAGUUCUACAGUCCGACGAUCGGGGAGGGGAUGGAGGAUAACCUCAUGAAAGGUGCCGUUUUCGGGUGAAACUUGACAUUUCUUUUAUACUUUACUCUUUUGAGAAGGAUUCUUUUUUUUUUUUUUUUUUUUUUUGAGUUGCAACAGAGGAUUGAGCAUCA: 2.17 ratio
